Assay results from different studies.
Each numbered part is a random draw from the data of one study; scales do not carry over between parts. Substitutions count along the parent as printed.

Series 1
Target: CCNA2, cyclin fold, Cln2 fusion (human)
Technique: yeast growth competition, sequencing
Matrix: yeast
Notes: strong parent motif
Reference: not given
Reading: higher = stronger binding
Starting sequence: CDKN1A docking peptide (human); SKACRRLFGPVDS; partner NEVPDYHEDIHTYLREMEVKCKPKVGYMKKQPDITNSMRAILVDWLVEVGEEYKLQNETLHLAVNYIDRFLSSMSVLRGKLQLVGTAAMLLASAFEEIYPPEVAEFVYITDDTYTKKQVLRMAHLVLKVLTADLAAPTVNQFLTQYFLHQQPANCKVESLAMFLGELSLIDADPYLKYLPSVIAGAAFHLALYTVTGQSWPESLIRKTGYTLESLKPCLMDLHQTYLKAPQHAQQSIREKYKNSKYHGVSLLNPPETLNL
| Substitution | normalised enrichment score |
| --- | --- |
| R6V | 4.56 |
| R6G | 1.76 |
| R6N | 5.76 |
| L7I | 1.78 |
| R5Q | 2.09 |
| L7H | 0.578 |
| L7W | 0.782 |
| G9T | 5.6 |
| G9C | 5.4 |
| A3M | 3.07 |
| F8S | 0.0111 |
| V11I | 5.89 |
| L7A | 0.355 |
| P10F | 4.33 |
| F8W | 3.82 |

Series 2
Target: ATF2, bZIP domain (human)
Technique: DHFR protein complementation
Matrix: yeast
Notes: single substitutions, most at no-binding floor
Reference: wild-type JUN-FOS pair
Reading: higher = stronger binding
Starting sequence: JUN, bZIP domain (human); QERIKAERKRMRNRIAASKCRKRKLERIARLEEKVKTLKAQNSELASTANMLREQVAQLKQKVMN; partner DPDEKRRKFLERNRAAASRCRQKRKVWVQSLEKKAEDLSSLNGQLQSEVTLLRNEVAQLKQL
| Substitution | binding fitness [natural log] |
| --- | --- |
| R30F | -1.38 |
| R30M | -1.39 |
| S43H | -1.2 |
| A49L | -1.38 |
| R53V | -1.46 |
| L31C | -1.49 |
| L52Y | -1.48 |
| A57K | -1.32 |
| A40R | -1.38 |
| S47I | -1.42 |
| E32D | -1.41 |
| A49E | -1.29 |
| A46N | -1.41 |
| L59W | -1.43 |
| L52A | -1.45 |
| E44P | -1.5 |
| N42K | -1.36 |
| T48G | -1.49 |
| E32T | -1.36 |

Series 3
Target: UBE2V2 UBC core domain (UniProt Q15819)
Technique: yeast two-hybrid
Matrix: yeast
Notes: mostly zero background
Reference: not given
Reading: higher = stronger interaction
B1: RNF38 RING domain (UniProt Q9H0F5); chain PNNHQSEQTLCVVCMCDFESRQLLRVLPCNHEFHAKCVDKWLKANRTCPICRADASEVHRDS
B2: RNF111 RING domain (UniProt Q6ZNA4); chain EGTEEDTEEKCTICLSILEEGEDVRRLPCMHLFHQVCVDQWLITNKKCPICRVDIEAQLPSE
B3: TRIM13 RING domain (UniProt O60858); chain MELLEEDLTCPICCSLFDDPRVLPCSHNFCKKCLEGILEGSVRNSLWRPAPFKCPTCRKETSATGINS
B4: RNF208 RING domain (UniProt Q9H0X6); chain SSAAAGEPLECPTCGHSYNVTQRRPRVLSCLHSVCEQCLQILYESCPKYKFISCPTCRRETVLFTDYG
B5: TRIM4 RING domain (UniProt Q9C037); chain EAEDIQEELTCPICLDYFQDPVSIECGHNFCRGCLHRNWAPGGGPFPCPECRHPSAPAALRP
B6: TRIML1 RING domain (UniProt Q8N9V2); chain LMENLREELTCFICLDYFSSPVTTECGHSFCLVCLLRSWEEHNTPLSCPECWRTLEGPHFQS
B7: TRIM24 RING domain (UniProt O15164); chain EAARLNLLDTCAVCHQNIQSRAPKLLPCLHSFCQRCLPAPQRYLMLPAPMLGSAETPPPVPAPGSPVSGSSPFATQVGVIRCPVCSQECAERHII
B8: VPS41 RING domain (UniProt P49754); chain KGVLVDEENICESCLSPILPSDAAKPFSVVVFHCRHMFHKECLPMPSMNSAAQFCNICSAKNRGPGSAI
Residues (chain): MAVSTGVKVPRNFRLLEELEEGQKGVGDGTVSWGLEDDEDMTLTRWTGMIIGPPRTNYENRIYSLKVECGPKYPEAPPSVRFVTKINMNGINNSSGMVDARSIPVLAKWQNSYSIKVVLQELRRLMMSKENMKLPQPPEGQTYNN
| Sequence | lacZ reporter activity |
| --- | --- |
| B1 (RNF38 RING domain) | 0 |
| B2 (RNF111 RING domain) | 0 |
| GAAPGPEAAECLVCSELALLVLFSPCQHRTVCEECARRMKKCIRCQVVVSKKLRPD (MIB2 RING domain (UniProt Q96AX9)) | 0 |
| VEPSEENSKDCVVCQNGTVNWVLLPCRHTCLCDGCVKYFQQCPMCRQFVQESFALC (CGRRF1 RING domain (UniProt Q99675)) | 0 |
| B3 (TRIM13 RING domain) | 0 |
| B4 (RNF208 RING domain) | 0 |
| B5 (TRIM4 RING domain) | 0 |
| B6 (TRIML1 RING domain) | 0 |
| B7 (TRIM24 RING domain) | 0 |
| ASLPTSEEDLCPICYAHPISAVFQPCGHKSCKACINQHLMNNKDCFFCKTTIVSVEDWE (RNF123 RING domain (UniProt Q5XPI4)) | 0 |
| PAELEVQASECVVCLEREAQMIFLNCGHVCCCQQCCQPLRTCPLCRQDIAQRLRIY (LRSAM1 RING domain (UniProt Q6UWE0)) | 0 |
| B8 (VPS41 RING domain) | 0 |

Series 4
Target: ABI1, truncated, D143A, DHFR fusion (Arabidopsis thaliana)
Technique: DHFR PCA, deep sequencing
Matrix: yeast
Notes: methotrexate growth selection, single substitutions
Added: (+)-ABA 0.11 µM
Reference: wild-type fitted maximum
Reading: higher = stronger binding
Starting sequence: PYL1, truncated, DHFR fusion (Arabidopsis thaliana); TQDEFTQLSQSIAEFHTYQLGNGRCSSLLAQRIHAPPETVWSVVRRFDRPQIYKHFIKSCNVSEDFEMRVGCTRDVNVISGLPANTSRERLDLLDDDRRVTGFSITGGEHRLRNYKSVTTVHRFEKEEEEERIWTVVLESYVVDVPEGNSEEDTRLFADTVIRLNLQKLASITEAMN
| Substitution | relative binding score [%] |
| --- | --- |
| S9Y | 23.1 |
| S42Q | 26.2 |
| E139H | 6.32 |
| N149M | 51.9 |
| E109C | 8.59 |
| L28Y | 1.5 |
| R98Y | 0.718 |
| S117H | -2.05 |
| L138P | -1.78 |
| Y115G | -8.65 |
| T86L | 21.6 |
| S9H | 27.2 |
| E147A | 18.7 |

Series 5
Target: Histone acetyltransferase KAT6A, winged helix 2, GST fusion (KAT6A, Homo sapiens, UniProt Q92794, residues 85-181)
Technique: protein binding microarray
Form: double-stranded DNA, one strand shown
Matrix: in vitro
Tested at: not given
Notes: 8-mer, flanks averaged, mean of 2 arrays, mostly near background
Reference: not given
Reading: higher = stronger binding
Target sequence (chain): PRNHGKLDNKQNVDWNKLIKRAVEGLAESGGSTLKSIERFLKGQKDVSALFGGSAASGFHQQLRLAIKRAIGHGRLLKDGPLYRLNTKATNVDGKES
| Oligonucleotide | E-score |
| --- | --- |
| GGAGGCCA | 0.0327 |
| AATACTTG | -0.0372 |
| ATAGATGG | -0.163 |
| CGCCGATA | 0.0773 |
| GCTCTACC | -0.105 |
| CGTTTAAC | -0.026 |
| AAACGTAA | -0.126 |
| CTCGTGAA | -0.0487 |
| CCTATAAG | -0.199 |
| CGATTCGA | 0.159 |
| CGAAGTAG | 0.189 |
| TACGCTAA | -0.0798 |
| TAAAGCCA | -0.0841 |
| AAGTGGTC | 0.055 |
| AAAAAGGC | -0.0663 |
| ATTACCCG | -0.0362 |
| ATCGTCAC | 0.0622 |
| GATTCGAC | 0.0705 |
